Measurements pooled from the literature.
Each line is one published result; not all experiments were run side by side. “And” joins repeats or separate records; there may be more than shown. ± marks the error that the study gave. ≈ marks a conversion by molar mass, not a printed value.

Compound | tested on | assay | test system | conditions | scale | quantity | value
Cc1ccc(NNC(=O)c2nnc(CC34CC5CC(CC(C5)C3)C4)o2)cc1 | Fusarium graminearum | fungal growth, inhibitor | – | – | – | EC50 | > 12.5 µg/mL
COc1c(C)c2c(c(O)c1C/C=C(\C)CCC(=O)O)C(=O)OC2 | COLO-678 | cell proliferation | colon cancer | – | – | IC50 | 2690 nM
O=C(NNc1ccc(Cl)c(Cl)c1)c1nnc(CC23CC4CC(CC(C4)C2)C3)o1 | Fusarium graminearum | fungal growth, inhibitor | – | – | – | EC50 | > 50 µg/mL
CCCCC1(CCCC)CN(c2ccccc2)c2cc(SC)c(OCC(=O)N[C@@H](C(=O)NCC(=O)O)c3ccccc3)cc2S(=O)(=O)C1 | – | refers to: HDL cholesterol | human, serum | 20 mg once daily, day 7 | – | serum HDL-C | 51.2 mg/dL
CC[C@H](C)[C@@H]1NC(=O)[C@@H]2CCCN2C(=O)[C@H](CC(C)C)NC(=O)[C@H](CC(C)C)NC(=O)CNC(=O)[C@@H](NC(=O)[C@@H](NC(=O)[C@H](CC(=O)O)NC(=O)CNC(=O)[C@@H](NC(=O)[C@H](C)NC(=O)CNC(=O)[C@H](CCCCN)NC(=O)[C@H](CC(C)C)NC(=O)[C@H](CC(C)C)NC(=O)[C@H](CCCCN)NC(=O)CNC(=O)[C@@H](NC(=O)[C@@H](N)CC(C)C)C(C)C)C(C)C)C(C)C)CSSC[C@@H](C(=O)O)NC1=O | – | RNA-seq, refers to: Ier3 | mouse, traumatic brain injury model, frontal cortex and hippocampus | dose not given | baseline: TBI alone | log2 fold change | -2.06
NC1CC1c1ccc(NC(=O)C(Cc2ccccc2)NC(=O)OCc2ccccc2)cc1 (stereo not shown) | MV4-11 | – | – | concentration not given | – | growth arrest | ~50%
c1ccc(C(NCCNC(c2ccccc2)c2ccccc2)c2ccccc2)cc1 | 5-HT2 receptor, rat | binding | – | 10 µM, Eurofins selectivity panel | – | inhibition | 44%
Nc1ncnc2c1ncn2[C@@H]1O[C@@H]2COP(=O)(O)O[C@H]3[C@@H](O)[C@H](n4cnc5c(=O)[nH]cnc54)O[C@@H]3COP(=O)(O)O[C@H]2[C@H]1O | HFF-1 | RNA sequencing, refers to: Interferon Signaling | – | upregulated pathway | baseline: Zika virus alone | pathway fold enrichment | 8.94
NCCc1ccc(Oc2ccc(O)cc2)c(I)c1 | human H+/organic cation antiporter | – | hCMEC/D3 | 250 µM, 2 min, with: 1 µM DPH preloading 30 min | baseline: control | trans-stimulation ratio | 0.86
C/C=C(/C)C(=O)O[C@H]1C(C)=C2[C@H]([C@@H]1OC(=O)CCCCCCC)[C@@](C)(OC(C)=O)C[C@H](OC(=O)CCC)[C@@]1(O)[C@H]2OC(=O)[C@@]1(C)O | HEK-293T | RNA-seq GSEA, refers to: Hallmark KRAS signaling up | – | 500 nM, 6 h | direction not given | normalized enrichment score | 1.19
COc1cc(Nc2ncc(F)c(Nc3ccc4c(n3)NC(=O)C(C)(C)O4)n2)cc(OC)c1OC | GABA transporter | – | – | – | – | IC50 | > 10000 nM
CC(C)N1CCC(NC2CCN(c3cccc(-c4cc5cc(F)ccc5[nH]4)c3)CC2)CC1 | OVCAR-3 | – | – | – | – | GI50 | 1650 nM
CN1CCN(S(=O)(=O)c2cc([N+](=O)[O-])ccc2N(CCOS(C)(=O)=O)CCOS(C)(=O)=O)CC1 | – | – | NSG mice, sample BD PDX | intraperitoneal, 25 mg/kg weekly x3 | – | event-free survival | 4.7 days
C[C@H]1O[C@@H](O[C@H]2CC[C@@]3(C)[C@@H](CC[C@]4(C)[C@@H]3C=C[C@]35OC[C@@]6(CCC(C)(C)C[C@H]63)[C@@H](O)C[C@]54C)[C@]2(C)CO)[C@H](O)[C@@H](O[C@@H]2O[C@H](CO)[C@@H](O)[C@H](O)[C@H]2O)[C@H]1O | – | Western blot, refers to: mTOR | mouse, hepatic SIRT1 knockdown (AAV8-TBG), liver | dose not given, high dose, unit not given, with: ethanol | baseline: β-actin | protein level | 0.475 and 0.507 and 0.541
CC[C@H](C)[C@H](NC(=O)[C@H](C)NC(=O)[C@H](CCCCN)NC(=O)[C@H](CC(C)C)NC(=O)[C@H](C)NC(=O)[C@@H](NC(=O)[C@H](Cc1c[nH]cn1)NC(=O)[C@H](CC(C)C)NC(=O)[C@@H](NC(=O)[C@@H](NC(=O)[C@H](CCCCN)NC(=O)[C@H](C)NC(=O)[C@H](C)NC(=O)[C@H](CO)NC(=O)[C@H](CCCCN)NC(=O)[C@H](Cc1ccccc1)NC(=O)[C@@H](NC(=O)[C@H](CCCCN)NC(=O)[C@H](CC(C)C)NC(=O)[C@H](Cc1ccccc1)NC(=O)[C@H](CO)NC(=O)[C@H](CCCCN)NC(=O)[C@H](Cc1c[nH]c2ccccc12)NC(=O)[C@H](CCCCN)NC(C)=O)[C@@H](C)O)[C@@H](C)O)C(C)C)[C@@H](C)O)C(=O)N[C@@H](CO)C(=O)N[C@@H](CO)C(N)=O | Klebsiella pneumoniae | – | ATCC 1705 | – | – | MBC90 | 16 µg/mL (≈ 5.45 µM)
C[C@H](C(=O)N[C@H]1COc2ccccc2[C@@H]1S(C)(=O)=O)c1ccc(F)cc1 | imidazoline I2 central, rat | binding | – | 10 µM, Eurofins selectivity panel | – | inhibition | -5%
COc1cc(CCC[P+](c2ccccc2)(c2ccccc2)c2ccccc2)c(OC)c2c1OCO2.[I-] | DU-145 | SRB | – | – | – | LC50 | > -4 log M
O=C(NNc1ccc(Cl)c(Cl)c1)c1nnc(C23CC4CC(CC(C4)C2)C3)o1 | Fusarium graminearum | fungal growth, inhibitor | – | – | – | EC50 | > 25 µg/mL
CN1C(=O)C(C2C3=C(CC(C)(C)CC3=O)Oc3c(O)cccc32)C(=O)N(C)C1=O (stereo not shown) | 3T3-L1 preadipocytes | adipogenesis, Oil Red O staining | – | IC20, 14 days, single replicate | – | lipid content | 0.586 OD492 and 0.596 OD492 and 0.573 OD492
COc1c(CCC[P+](c2ccccc2)(c2ccccc2)c2ccccc2)cc2c(c1OC)OCO2.[I-] | SK-MEL-5 | SRB | – | – | – | TGI | -5.55 log M
CN1CCN(C2(CNC3CCN(c4cccc(-c5cc6cc(F)ccc6[nH]5)c4)CC3)CCC2)CC1 | HOP-62 | – | – | – | – | GI50 | 1750 nM
O=C(O)c1cn(Cc2ccc(F)cc2)c2ccccc12 | – | glucuronidation, substrate | human intestinal microsomes | 60 min, 37 °C, with: UDPGA | – | Vmax | 0.59 ± 0.05 nmol/min/mg

Excerpt of the above:
Compound | tested on | assay | test system | conditions | scale | quantity | value
CN1CCN(C2(CNC3CCN(c4cccc(-c5cc6cc(F)ccc6[nH]5)c4)CC3)CCC2)CC1 | HOP-62 | – | – | – | – | GI50 | 1750 nM
COc1cc(CCC[P+](c2ccccc2)(c2ccccc2)c2ccccc2)c(OC)c2c1OCO2.[I-] | DU-145 | SRB | – | – | – | LC50 | > -4 log M
